Published values collected from several papers.
Parts stem from different laboratories: compare values within a part only.

Sample 1
Target: Sal-like protein 4, full length isoform B (SALL4, Homo sapiens, UniProt Q9UJQ4-2, residues 1-616)
Technique: universal PBM
Form: double-stranded DNA, one strand shown
Matrix: in vitro
Concentration: not given
Notes: 8-mer, flanks averaged, mean of replicates
Direction: higher = stronger binding
Residues (chain): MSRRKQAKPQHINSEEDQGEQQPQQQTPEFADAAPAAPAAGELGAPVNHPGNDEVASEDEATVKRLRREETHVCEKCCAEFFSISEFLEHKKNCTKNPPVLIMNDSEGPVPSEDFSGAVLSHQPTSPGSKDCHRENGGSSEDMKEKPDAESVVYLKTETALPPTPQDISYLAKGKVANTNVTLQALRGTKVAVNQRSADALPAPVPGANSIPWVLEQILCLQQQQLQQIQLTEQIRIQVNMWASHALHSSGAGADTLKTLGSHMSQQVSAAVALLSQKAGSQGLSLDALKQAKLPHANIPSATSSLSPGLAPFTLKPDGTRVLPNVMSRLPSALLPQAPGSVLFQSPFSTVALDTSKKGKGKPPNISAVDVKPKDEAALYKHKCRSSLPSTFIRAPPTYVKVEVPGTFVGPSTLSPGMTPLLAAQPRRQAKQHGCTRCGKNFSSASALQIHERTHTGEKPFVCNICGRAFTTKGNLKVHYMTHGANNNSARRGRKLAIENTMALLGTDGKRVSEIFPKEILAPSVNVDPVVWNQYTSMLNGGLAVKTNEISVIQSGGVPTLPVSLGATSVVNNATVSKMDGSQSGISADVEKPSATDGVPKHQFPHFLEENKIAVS
| Oligonucleotide | E-score |
| --- | --- |
| CCTCAGTA | -0.0891 |
| AAGCCGAA | -0.0217 |
| AGTGTCCC | -0.22 |
| CATCCCCA | -0.168 |
| CGCAGGTC | -0.301 |
| ATTGGATA | 0.229 |
| GGGGGACC | -0.405 |
| GCGAAAAA | 0.164 |
| ACGTGTAA | 0.192 |
| CGATATTC | 0.0621 |
| AGGTATTC | 0.0357 |
| CGAGGGCA | -0.178 |
| ATTCGTTG | -0.083 |
| GAAGGGGA | -0.202 |
| ACTAAGAT | 0.125 |
| CACTAGAA | 0.0928 |
| ACGACCGC | -0.261 |
| ACCAACCG | -0.218 |
| AGTCCTAG | -0.0138 |
| CGGAATTA | 0.214 |
| AAGCCTAC | 0.0241 |

Sample 2
Target: PABPC1L2, full length, GST fusion (mouse, UniProt A0ABA7IW68)
Technique: RNAcompete
Form: RNA
Matrix: in vitro
Concentration: 20 nM
Notes: 7-mer, probes averaged, single round
Baseline: mean of 7-mers
Direction: higher = stronger binding
Target sequence (chain): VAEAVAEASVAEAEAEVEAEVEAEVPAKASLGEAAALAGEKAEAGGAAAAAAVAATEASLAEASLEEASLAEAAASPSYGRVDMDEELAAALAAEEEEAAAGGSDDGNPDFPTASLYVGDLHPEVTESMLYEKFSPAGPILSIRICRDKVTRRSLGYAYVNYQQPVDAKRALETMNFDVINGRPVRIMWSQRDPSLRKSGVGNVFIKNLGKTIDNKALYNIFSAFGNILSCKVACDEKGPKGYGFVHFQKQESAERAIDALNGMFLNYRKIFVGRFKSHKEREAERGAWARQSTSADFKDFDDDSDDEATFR
| Oligonucleotide | 7-mer Z-score |
| --- | --- |
| ACAGAAA | 2.09 |
| CGGCGGU | -0.0518 |
| AUCGUAU | -0.217 |
| UGGGAUU | -0.0482 |
| CCACAAG | -0.222 |
| AUUCGAU | -0.133 |
| UGGCCCU | 0.0243 |
| ACGCCCA | -0.277 |
| UACUACC | -0.273 |
| AUUCACG | -0.0917 |
| GAUCCUA | -0.159 |
| UUGCGAA | -0.0681 |
| UCAACCA | -0.184 |
| CGGCUCC | -0.302 |
| CUUAUAA | 0.0388 |
| AGCCCGG | -0.121 |
| AGGGAAC | 0.323 |
| UGUGCCA | -0.327 |
| CUCGUGU | -0.42 |
| GGUAGGU | 0.126 |

Sample 3
Target: Histone acetyltransferase KAT6A, winged helix 2, GST fusion (KAT6A, Homo sapiens, UniProt Q92794, residues 85-181)
Technique: protein binding microarray
Form: double-stranded DNA, one strand shown
Matrix: in vitro
Concentration: not given
Notes: 8-mer, flanks averaged, mean of 2 arrays, mostly near background
Baseline: not given
Direction: higher = stronger binding
Target sequence (chain): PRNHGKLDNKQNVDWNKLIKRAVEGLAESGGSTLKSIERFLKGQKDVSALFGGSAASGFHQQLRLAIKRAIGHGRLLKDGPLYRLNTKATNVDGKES
| Oligonucleotide | E-score |
| --- | --- |
| TCCAACCA | -0.037 |
| CAAGCGAA | 0.0473 |
| CTGAACTC | -0.0206 |
| CAACAATA | -0.0325 |
| CTACTTGC | 0.0792 |
| ATGATAGA | 0.00786 |
| TAGTAAGA | 0.0791 |
| ACCGCACA | -0.0111 |
| CGCTGACG | 0.0143 |
| AAACATTG | -0.183 |
| CACTGTAG | 0.12 |
| CGTTTGGC | 0.0449 |
| CTAATAAC | -0.0547 |
| ACGGACGA | 0.0845 |
| CCCGCGAG | 0.186 |
| CTTATTCA | -0.114 |
| AAAATAAA | 0.049 |
| CATCGCAA | 0.00695 |
| GCCGATGA | 0.0178 |
| AGGAGCCT | -0.0686 |
| CAAGGAAG | 0.0267 |
| ATATTGTA | -0.0205 |

Sample 4
Target: RNA binding protein fox-1 homolog 2, RRM domain, GST-SBP tag (RBFOX2, Homo sapiens, UniProt O43251-10, residues 100-194)
Technique: RNA Bind-n-Seq
Form: RNA
Matrix: in vitro
Concentration: 365 nM
Notes: natural RNA segment, single round, ends assumed
Baseline: no-protein control
Direction: higher = stronger binding
Residues (chain): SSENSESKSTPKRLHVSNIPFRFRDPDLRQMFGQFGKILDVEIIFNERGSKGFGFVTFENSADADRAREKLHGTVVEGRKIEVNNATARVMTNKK
| Oligonucleotide | RBNS enrichment (R) |
| --- | --- |
| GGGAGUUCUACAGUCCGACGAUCAGGUCAGCUGCGAGGGUCACAGAGCGUUCCGGGGGCCAAGGCGCCGGGCCCCGGGGCCAUGCUCUUAUCACCAGCCACCCGUCCUCCCGCCAGAGGGUCCCUGCCCCGAGUGGAAUUCUCGGGUGCCAA | 0.43 |
| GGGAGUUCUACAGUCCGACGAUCCUAAGCGCUGACCGUGAACUCUGCCCUUGAUGGCGCUAAGCUGUCUGGACAGUGCGGUUACAAGCAUUAGUGAGUGUCCUGCUCCACGCCUGUGUGAACCAGGCACAGGAUGGAAUUCUCGGGUGCCAA | 0.222 |
| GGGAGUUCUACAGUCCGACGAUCGUAUCGUAUACUAUUAUGGAGUAUUUAAAAGACUCAAGUUCAAAUUAACAUGCUUCUUUUAUUCUUCAAAGCAAUUCUUUACAACCUGACCAUGUAAAAGAUCUGUUACCUGGAAUUCUCGGGUGCCAA | 0.462 |
| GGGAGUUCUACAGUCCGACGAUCCUAGCAUUCCAUACAAAAUUGUUUCCUAUAAGCAUUCCUUUUAUUCUCUAUUCUAUCCUGGGUCUGCCUCAACCGUGAGAUAGGAGAGUCUCUGGUACUAGCUGCUGUAGUGGAAUUCUCGGGUGCCAA | 0.806 |
| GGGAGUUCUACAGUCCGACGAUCUUAAAAACCCCACCAUUUGGAGAAUUACAAGGGUUUUGUCCUGAAUUGUAGUGUUGGCAAGCCCAAGCCACUCGUGCUAACUGCUUUUUGUCUCGGUUGCUAUUCCAAGAUGGAAUUCUCGGGUGCCAA | 0.525 |
| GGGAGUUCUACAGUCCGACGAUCAAGCAGUUUUGUCUUGGAAUUUUGUAUGUUGUAGGAAUCCUUAGAGAGUGUGGUUCCUUCUGAUGGGGAGAAAGGGCAAAUUAUUUUAAUAUUUUGUAUUUUCACCUUUAUGGAAUUCUCGGGUGCCAA | 0.444 |
| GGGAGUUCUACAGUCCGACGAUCAGCCUCAUCCCCUAUACAGUUAGGAGCUCCCCACAUCUCUACCAAAACCCAGCACAUAAGUAUCUGCGUGGUCUAGCCUUUCAUCUCCGUAACAAGCCAGGGGACUCUUGUGGAAUUCUCGGGUGCCAA | 0.913 |
| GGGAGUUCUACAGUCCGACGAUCCCCCAUGAUUCUGCUUCACUGUUGGAAUCCUCUUUGAAGUUCCCCCUCUCUUUGCUAAAGCAGUGAAGGAAGAGAACAGAGACAAACUCUUUGGACUGUGAAAGAGAAGGUGGAAUUCUCGGGUGCCAA | 0.369 |
| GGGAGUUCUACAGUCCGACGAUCUGCCUAUGCCAGCUAAAAGUUUUUCCUGUUACUGCUGUGUUCUUCUUGCUAGAGAAAACAUAUAUUAAACUGUAACUUUUUCUAAAUUUAAAAGAAGUUUUAAGAUAGAUUGGAAUUCUCGGGUGCCAA | 0.485 |
| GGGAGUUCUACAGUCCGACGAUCCAGGACCCAGGACCUCUGGUUCUCUCCUUGUUCUGGGCAGUGAGGAGCAUAGGACCUGGUCUCUGGCUCUCCUCCCCCCUGCUGUGUAAAUAGUCUCCCCAUCCCAUGAGUGGAAUUCUCGGGUGCCAA | 0.332 |
| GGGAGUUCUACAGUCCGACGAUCCGGGCCUCAGUUUCCUCAAUCAUAGAAGAAGACCAAUAGACAAGAUCAGCUGUUCUUAGAUGCUGGUGGGCAUUUGAACAUGCUCCUCCAUGAUUCUGAAGCAUGCACACUGGAAUUCUCGGGUGCCAA | 4.17 |
| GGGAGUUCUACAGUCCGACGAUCUGUGAAGUUUGAAGAUUUCUGAUUAGCUUUCAUCCGGUCUUCAUCUCUAUUUAUCUUAGAAGUUUAGUUUCCCCCACCUCCCCUACCUUCUCUAGGUGGACAUUAAACCAUGGAAUUCUCGGGUGCCAA | 0.668 |

Sample 5
Target: Ras GTPase-activating protein-binding protein 1, RRM domain (G3BP1, Homo sapiens, UniProt Q13283)
UniProt Q13283, sequence (whole entry, looked up): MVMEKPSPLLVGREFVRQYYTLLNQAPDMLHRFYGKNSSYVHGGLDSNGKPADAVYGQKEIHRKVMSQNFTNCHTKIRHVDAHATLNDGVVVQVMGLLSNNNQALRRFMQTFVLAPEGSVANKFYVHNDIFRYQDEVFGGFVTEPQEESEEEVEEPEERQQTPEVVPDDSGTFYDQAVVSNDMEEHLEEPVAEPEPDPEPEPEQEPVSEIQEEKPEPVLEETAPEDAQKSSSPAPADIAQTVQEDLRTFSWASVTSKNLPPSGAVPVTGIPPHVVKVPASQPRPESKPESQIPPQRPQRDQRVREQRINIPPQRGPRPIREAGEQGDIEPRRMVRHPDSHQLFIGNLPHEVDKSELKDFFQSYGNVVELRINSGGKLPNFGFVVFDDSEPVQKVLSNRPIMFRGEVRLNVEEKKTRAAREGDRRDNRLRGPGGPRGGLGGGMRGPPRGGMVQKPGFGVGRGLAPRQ
Technique: RNA Bind-n-Seq
Form: RNA
Matrix: in vitro
Concentration: 1 µM
Notes: whole 134-nt RNA, ends assumed
With: 150 mM KCl
Baseline: input library
Direction: higher = stronger binding
| Oligonucleotide | log2 enrichment |
| --- | --- |
| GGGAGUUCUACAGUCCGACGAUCAGUCCUGUGCUACACAUCGUAUGUACCGAAUCGGGGUGGGGUUUUUGGGGAAAGGGGAAAGUAUUAUGUUACGCCGUUCGGAUCUGCACUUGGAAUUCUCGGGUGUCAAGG | 0.88 |
| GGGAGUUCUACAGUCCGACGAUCCACAGACAACACGCACCCACACAGACACAGAGGGAAGGGGUUGGGAUGGGGACAGGGUGCACAGCAGGGCGGGGUAGGACCCCAGGCCCUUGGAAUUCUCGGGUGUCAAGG | -0.304 |
| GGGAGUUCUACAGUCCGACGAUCUCAAGUCCUGUGCUACACAUCGUAUGUACCGAAUCGGGCCGGGCCGGGCCGGGGAAAGUAUUAUGUUACGCCGUUCGGAUCUGCACUUCCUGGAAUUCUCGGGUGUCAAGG | -0.636 |
| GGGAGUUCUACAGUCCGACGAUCCUCAAGUCCUGUGCUACACAUCGUAUGUACCGAAUCGGUUUGGAAAAAGGUGGAAAGUAUUAUGUUACGCCGUUCGGAUCUGCACUUCCAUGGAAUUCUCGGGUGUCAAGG | -0.161 |
| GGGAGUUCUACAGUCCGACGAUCUCCUGUGCUACACAUCGUAUGUACCGAAUCAAAUUUUUAAACCCCCAAACCCCCCCAAAAAAGUAUUAUGUUACGCCGUUCGGAUCUGCAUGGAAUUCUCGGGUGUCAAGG | -0.728 |
| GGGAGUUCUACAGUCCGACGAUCCUCAAGUCCUGUGCUACACAUCGUAUGUACCGAAUCGGGGCGGGCGGGGCGGGGAAAGUAUUAUGUUACGCCGUUCGGAUCUGCACUUCCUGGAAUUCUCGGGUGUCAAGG | 0.51 |
| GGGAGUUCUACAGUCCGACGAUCAAGUCCUGUGCUACACAUCGUAUGUACCGAAUCGGAAAGGAAAAAAAGGAAAAAGGAAAGUAUUAUGUUACGCCGUUCGGAUCUGCACUUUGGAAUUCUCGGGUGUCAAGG | -0.019 |
| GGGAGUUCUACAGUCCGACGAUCCCUCAAGUCCUGUGCUACACAUCGUAUGUACCGAAUCGGCCGGCCGGCCGGGGAAAGUAUUAUGUUACGCCGUUCGGAUCUGCACUUCCAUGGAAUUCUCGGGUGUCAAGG | -0.282 |
| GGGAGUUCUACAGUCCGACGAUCCUGUGCUACACAUCGUAUGUACCGAAUCGGGGUUUGGGGAAAAAAAGGGGAAAAAAAGGGGAAAGUAUUAUGUUACGCCGUUCGGAUCUGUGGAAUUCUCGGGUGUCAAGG | 0.588 |
| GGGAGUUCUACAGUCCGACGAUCUGGCCCUGGUGGCAUGCGGGGAGGAAGAGGUGGCCUCAUGGAUCGUGUUGGUCCCGGUGGAAUGUUCAGAGGUGGCCGUGGUGGAGACAGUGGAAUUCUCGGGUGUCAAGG | 0.854 |

Excerpt of the above (sample 3):
| Oligonucleotide | E-score |
| --- | --- |
| ACCGCACA | -0.0111 |
| CGCTGACG | 0.0143 |
| AAACATTG | -0.183 |
| CACTGTAG | 0.12 |
| CGTTTGGC | 0.0449 |
| CTAATAAC | -0.0547 |
| ACGGACGA | 0.0845 |
| CCCGCGAG | 0.186 |
